Experimental data collected from several papers.
Lines come from different studies, so protocols differ. Values joined by “and” are separate records of one study, mostly repeats; a detail may differ. ± marks the error that the study gave.
GBA2: Beta-glucosidase (GBA2, Homo sapiens, UniProt Q9HCG7)
Chain of UniProt Q9HCG7 (whole entry, looked up): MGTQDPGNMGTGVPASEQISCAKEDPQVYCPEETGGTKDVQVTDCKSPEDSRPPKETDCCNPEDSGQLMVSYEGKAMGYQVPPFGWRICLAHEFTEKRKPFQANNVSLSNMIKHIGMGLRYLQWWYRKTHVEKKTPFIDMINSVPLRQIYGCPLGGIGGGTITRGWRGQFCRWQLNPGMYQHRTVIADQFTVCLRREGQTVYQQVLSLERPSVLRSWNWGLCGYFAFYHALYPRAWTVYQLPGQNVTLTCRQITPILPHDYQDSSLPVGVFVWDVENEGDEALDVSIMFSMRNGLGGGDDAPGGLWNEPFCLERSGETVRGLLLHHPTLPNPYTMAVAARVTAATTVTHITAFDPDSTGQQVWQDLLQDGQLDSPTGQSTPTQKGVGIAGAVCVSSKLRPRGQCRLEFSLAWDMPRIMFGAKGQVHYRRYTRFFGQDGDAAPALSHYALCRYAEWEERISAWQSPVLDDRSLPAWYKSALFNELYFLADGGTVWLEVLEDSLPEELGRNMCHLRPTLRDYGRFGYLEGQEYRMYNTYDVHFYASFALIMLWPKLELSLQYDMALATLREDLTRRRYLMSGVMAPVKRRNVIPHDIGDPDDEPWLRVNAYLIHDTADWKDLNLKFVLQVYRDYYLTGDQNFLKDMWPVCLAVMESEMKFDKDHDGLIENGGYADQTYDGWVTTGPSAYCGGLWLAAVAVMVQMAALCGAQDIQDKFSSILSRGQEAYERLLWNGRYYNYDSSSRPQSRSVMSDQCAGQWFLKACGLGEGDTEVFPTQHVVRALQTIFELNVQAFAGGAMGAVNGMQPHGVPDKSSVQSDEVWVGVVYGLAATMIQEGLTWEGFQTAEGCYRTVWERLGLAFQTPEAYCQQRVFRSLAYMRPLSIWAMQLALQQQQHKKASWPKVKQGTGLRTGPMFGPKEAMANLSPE
Chain of UniProt O60674 (whole entry, looked up): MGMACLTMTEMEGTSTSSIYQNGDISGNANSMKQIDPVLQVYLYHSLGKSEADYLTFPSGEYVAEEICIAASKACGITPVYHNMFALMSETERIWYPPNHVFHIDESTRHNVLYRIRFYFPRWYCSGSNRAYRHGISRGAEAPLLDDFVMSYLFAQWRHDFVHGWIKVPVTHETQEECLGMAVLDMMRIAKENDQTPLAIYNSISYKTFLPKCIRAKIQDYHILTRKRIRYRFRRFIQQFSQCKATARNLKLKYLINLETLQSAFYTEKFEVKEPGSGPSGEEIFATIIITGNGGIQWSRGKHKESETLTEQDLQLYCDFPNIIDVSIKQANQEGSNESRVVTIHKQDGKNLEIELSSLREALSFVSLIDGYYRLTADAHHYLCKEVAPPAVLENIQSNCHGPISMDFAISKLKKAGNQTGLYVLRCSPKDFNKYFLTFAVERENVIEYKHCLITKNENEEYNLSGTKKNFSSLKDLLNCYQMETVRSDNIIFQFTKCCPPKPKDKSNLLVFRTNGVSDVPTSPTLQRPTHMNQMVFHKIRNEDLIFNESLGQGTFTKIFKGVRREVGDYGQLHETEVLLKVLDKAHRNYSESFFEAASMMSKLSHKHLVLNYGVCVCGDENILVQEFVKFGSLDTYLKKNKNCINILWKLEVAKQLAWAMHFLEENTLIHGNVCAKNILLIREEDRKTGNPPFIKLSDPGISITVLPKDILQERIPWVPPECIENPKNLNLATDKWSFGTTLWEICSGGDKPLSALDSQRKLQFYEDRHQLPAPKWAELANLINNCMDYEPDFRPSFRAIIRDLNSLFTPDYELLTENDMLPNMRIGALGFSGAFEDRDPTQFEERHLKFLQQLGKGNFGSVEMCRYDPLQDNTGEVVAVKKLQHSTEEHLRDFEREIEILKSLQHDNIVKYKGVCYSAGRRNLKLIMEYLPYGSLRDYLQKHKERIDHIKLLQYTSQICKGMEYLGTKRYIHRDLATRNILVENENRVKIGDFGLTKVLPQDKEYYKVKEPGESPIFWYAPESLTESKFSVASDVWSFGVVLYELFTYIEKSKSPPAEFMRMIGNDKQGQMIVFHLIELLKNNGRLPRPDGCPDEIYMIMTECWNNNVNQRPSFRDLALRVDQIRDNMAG
Chain of UniProt P10635 (whole entry, looked up): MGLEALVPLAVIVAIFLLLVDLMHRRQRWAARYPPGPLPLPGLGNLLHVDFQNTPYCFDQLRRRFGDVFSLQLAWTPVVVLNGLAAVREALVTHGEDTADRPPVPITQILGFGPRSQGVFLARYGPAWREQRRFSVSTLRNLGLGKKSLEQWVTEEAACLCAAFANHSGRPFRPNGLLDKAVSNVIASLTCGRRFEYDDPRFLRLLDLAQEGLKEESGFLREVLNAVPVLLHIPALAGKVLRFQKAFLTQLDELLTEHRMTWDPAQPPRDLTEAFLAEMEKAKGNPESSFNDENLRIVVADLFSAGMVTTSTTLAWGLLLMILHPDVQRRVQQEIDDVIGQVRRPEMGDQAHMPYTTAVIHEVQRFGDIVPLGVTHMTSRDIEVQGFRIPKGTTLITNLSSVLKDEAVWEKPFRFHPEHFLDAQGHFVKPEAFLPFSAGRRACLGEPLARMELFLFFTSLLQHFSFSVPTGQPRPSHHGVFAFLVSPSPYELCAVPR
Chain of UniProt P03372 (whole entry, looked up): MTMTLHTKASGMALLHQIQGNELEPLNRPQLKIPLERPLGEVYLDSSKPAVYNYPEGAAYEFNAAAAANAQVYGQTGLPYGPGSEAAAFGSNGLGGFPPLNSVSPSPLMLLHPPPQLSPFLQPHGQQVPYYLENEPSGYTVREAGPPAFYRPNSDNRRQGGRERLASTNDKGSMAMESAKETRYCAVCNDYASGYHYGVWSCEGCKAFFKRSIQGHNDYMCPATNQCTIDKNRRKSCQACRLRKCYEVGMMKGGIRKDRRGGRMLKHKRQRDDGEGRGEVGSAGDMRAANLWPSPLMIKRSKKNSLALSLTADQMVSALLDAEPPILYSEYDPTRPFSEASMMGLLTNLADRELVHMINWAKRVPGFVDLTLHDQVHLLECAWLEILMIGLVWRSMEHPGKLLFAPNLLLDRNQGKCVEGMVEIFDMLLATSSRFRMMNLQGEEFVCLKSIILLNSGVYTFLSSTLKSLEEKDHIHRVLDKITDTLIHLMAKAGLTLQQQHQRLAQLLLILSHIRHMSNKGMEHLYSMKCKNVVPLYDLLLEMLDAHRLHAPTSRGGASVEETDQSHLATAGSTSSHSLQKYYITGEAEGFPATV

The inhibition of `CCC(=O)N(C)c1ccc(Cl)c(Cl)c1` is reported as < 10% (L-type Ca2+ channel, verapamil site; radioligand binding; 10 µM).
Under “SM/ceramide ratio Total”, `O=C(CCCCCOc1ccc2ccccc2c1)N[C@@H](CO)C[C@@H](O)c1ccc(-c2ccccc2)cc1` is recorded as 14 ,0 (ceramide transfer protein (CERT), human; cellular CERT activity, HPLC-MS/MS lipidomics; HeLa; 1 µM, 24 h).
The IC50 of `Cc1nn(-c2cccc(N)c2)c(=O)c2cnc(Nc3ccc(N4CCNCC4)cc3)nc12` is reported as > 10000 nM (Tyrosine-protein kinase JAK2, JH1-JH2 domains (JAK2, Homo sapiens, UniProt O60674); kinase activity, inhibitor, SelectScreen kinase profiling).
For `C[n+]1cc(/C=N/NC(=O)c2cncc(C(=O)N/N=C/c3cc4ccccc4[n+](C)c3)n2)cc2ccccc21`, the ΔTm was 15.4 ± 0.2 °C (myc22 MYC G4-DNA parallel; FRET melting; 1 µM, K1 buffer, DNA 0.2 µM, with: ds26 10 µM).
`C=CC(=O)Nc1cccc(Cn2ncc3cnc(Nc4cnn(CCOC)c4)nc32)c1`: “percent of control” 100% (NEK6 human; binding, KINOMEscan; 100 nM; lower = stronger binding).
Under “LacCer 24:1 amount”, `CCCCCCCCCCCC(=O)N[C@H](CO)C[C@@H](O)c1ccccc1` is recorded as 8740 pmol/sample and 7180 pmol/sample and 7710 pmol/sample (ceramide transfer protein (CERT), human; cellular CERT activity, HPLC-MS/MS lipidomics; HeLa; 1 µM, 24 h, normalised to cell number).
For `OC[C@H]1N[C@H](CCCCOCC23CC4CC(CC(C4)C2)C3)[C@H](O)[C@@H](O)[C@@H]1O`, the selectivity ratio was 735 (GBA2; inhibitor, 4MU-β-D-glucopyranoside; HEK293T homogenates overexpressing GBA2; relative to: GCS IC50 over GBA2 IC50).
Under “SM/ceramide ratio C24:1”, `CCCCCCc1cccc(C(O)CC(CO)NC(=O)CCCCCCCCCCNC(C)=O)c1` (centres unmarked) is recorded as 4 ,0 and 6 ,0 (ceramide transfer protein (CERT), human; cellular CERT activity, HPLC-MS/MS lipidomics; HeLa; 1 µM, 24 h).
The ΔTm of `C[n+]1ccc(/C=N/NC(=O)N/N=C/c2cc[n+](C)c3ccccc23)c2ccccc21` is reported as 6.1 ± 0.4 °C (myc22 MYC G4-DNA parallel; FRET melting; 1 µM, K1 buffer, DNA 0.2 µM).
With `C=C(NC(=O)c1csc(-c2nc3c(cc2O)-c2nc(cs2)C(=O)NC(C(C)O)C(=O)NC(=C(C)OC)c2nc(cs2)C(=O)NC2c4nc(cs4)C(=O)NC(COC(=O)c4c5c6c(cccc6n4O)COC(=O)C(OC4CC(C)(O)C(N(C)C)C(C)O4)C2OC5)c2nc-3cs2)n1)C(N)=O` (centres unmarked) the AUC(0-inf) was 869 ng·h/mL (Sprague-Dawley rats, both sexes, plasma; intravenous infusion, 2 mg/kg).
`Fc1ccc(Nc2nc(NC3CCCCC3)c3ccccc3n2)cc1F` has a pIC50 of 6.7 (β2AR/β1AR TM5 chimera; β-arrestin2 recruitment, antagonist, BRET; with: isoprenaline 1 µM).
With `CC[n+]1cccc2cc(/C=N/NC(=O)C(=O)N/N=C/c3ccc4c(ccc[n+]4CC)c3)ccc21` the ΔTm was 3.6 ± 0.6 °C (myc22 MYC G4-DNA parallel; FRET melting; 1 µM, K1 buffer, DNA 0.2 µM).
`CN1CCCNC(=O)CC2(CCCCC2)CC(=O)NCCCN(C)CCCNc2cccc3c2C(=O)c2cccc(c2C3=O)NCCC1` has a ΔTm of < 0.5 °C (double-stranded DNA; DNA thermal stabilisation, CD melting; 4.5 µM, pH 7.4, with: 1.5 µM DNA, 100 mM KCl).
For `CCN(CC)CC#CCNc1ccnc2cc(Cl)ccc12`, the mean revertants was 13 revertants/well (Salmonella typhimurium; mini-Ames test; TA98; 250.0 µg/well, with rat liver S9).
With `C=CC(=O)N1[C@@H](c2ccc3c(c2)OCO3)c2[nH]c3ccccc3c2C[C@H]1C(=O)N1CCN(C)CC1` the relative co-enrichment was 175% (human cyclin E1 N112C-3xFLAG:CDK2; co-IP with TMT proteomics, item: PNN; concentration not given, Q9H307; relative to: wild type DMSO).
For `O=C(N/N=C/c1ccc2c(ccc[n+]2Cc2ccccc2)c1)N/N=C/c1ccc2c(ccc[n+]2Cc2ccccc2)c1`, the ΔTm was 7.9 ± 0.3 °C (myc22 MYC G4-DNA parallel; FRET melting; 1 µM, K1 buffer, DNA 0.2 µM).
`Cc1[nH]nc2c1N=C(c1ccccc1Cl)c1cnc(N3CCOCC3)cc1N2` gave an inhibition of 12% (nicotinic acetylcholine receptor, human; radioligand binding; 10 µM).
`O=C(Nc1cc(OCCN2CCCC2)c2ccccc2n1)c1cccc(C(=O)Nc2cc(OCCN3CCCC3)c3ccccc3n2)n1` has a delta Tm of 0 ± 0.1 K (double-stranded DNA; FRET melting; 1 µM, pH 7.4, 60 mM potassium, with: oligonucleotide 200 nM).
For `CC(C)(O)c1ccn2c(-c3ccc(F)c(-c4ccc(F)cc4C#N)c3)cnc2c1F`, protein interaction read “increased” (GABAA receptor α1 G251D human; proximity ligation, item: γ2 subunit; hiPSC-derived GABAergic neurons α1 G251D; 5 µM, 24 h, with: hispidulin 10 µM).
The maximal inhibition of `Fc1ccc(Nc2nc(NC3CCCCC3)c3cc(Br)ccc3n2)cc1F` is reported as 4.2% (β2AR/β1AR TM5 chimera; β-arrestin2 recruitment, antagonist, BRET; relative to: isoprenaline maximal response).
`C[n+]1ccc(/C=N/NC(=O)c2cc(C(=O)N/N=C/c3cc[n+](C)c4ccccc34)ncn2)c2ccccc21` gave a ΔTm of 3.2 ± 0.4 °C (myc22 MYC G4-DNA parallel; FRET melting; 1 µM, K1 buffer, DNA 0.2 µM, with: ds26 10 µM).
`CC(C)(C)c1ccc([C@H](O)C[C@H](CO)NC(=O)CCCCCOc2ccc3ccccc3c2)cc1`: “SM/ceramide ratio C16” 23 ,1 (ceramide transfer protein (CERT), human; cellular CERT activity, HPLC-MS/MS lipidomics; HeLa; 1 µM, 24 h).
`Nc1ncc(-c2cc(-c3cnn(CC(F)(F)F)c3)ncc2F)nc1C(=O)NC1CNCC(F)C1` (centres unmarked) has a remaining binding of 73% (WNK3; KINOMEscan; 1 µM; relative to: DMSO control).
With `CNC(=O)C1CCCN(C(=O)C2CC3CCC2N3C(=O)[C@@H]2C[C@@H](O)CN2C(=O)NCc2cccc(Cl)c2F)C1` (mixture of isomers) the dextrorphan formation was 143 ng/mL (Cytochrome P450 2D6 (CYP2D6, Homo sapiens, UniProt P10635); enzyme activity, inhibitor, time-dependent inhibition; 50 µM, preincubated with NADPH).
`Cc1ncsc1-c1ccc(C(C)NC(=O)C2CC(O)CN2C(=O)C(NC(=O)CCCCCCCCCCN2CCCC(Nc3ncc(Cl)c(Nc4ccccc4S(=O)(=O)C(C)C)n3)C2)C(C)(C)C)cc1` (centres unmarked): “log2 fold change” -1.04 (22Rv1; RNA-seq, item: PRKD2 mRNA; concentration not given; relative to: DMSO).
With `O=C(N/N=C/c1cc[n+](CC2CC2)c2ccccc12)c1cccc(C(=O)N/N=C/c2cc[n+](CC3CC3)c3ccccc23)c1` the ΔTm was 11.7 ± 0.3 °C (myc22 MYC G4-DNA parallel; FRET melting; 1 µM, K1 buffer, DNA 0.2 µM, with: ds26 10 µM).
`CC[C@@H]([C@H](C)c1ccc(O)cc1)[C@H](CC)c1ccc(O)cc1` has an EC50 of 78.4 nM (Estrogen receptor (ESR1, Homo sapiens, UniProt P03372); reporter gene, luciferase reporter (3xERE); 293T; 24 h).
The ΔTm of `CN1CCCNC(=O)c2cccc(c2)C(=O)NCCCN(C)CCCNc2cccc3c2C(=O)c2cccc(c2C3=O)NCCC1` is reported as < 0.5 °C (double-stranded DNA; DNA thermal stabilisation, CD melting; 4.5 µM, pH 7.4, with: 1.5 µM DNA, 100 mM KCl).
`NCCOc1cc(NC(=O)c2cc(OCc3cn([C@H]4O[C@@H](CO)[C@H](O)[C@@H](O)[C@@H]4O)nn3)cc(C(=O)Nc3cc(OCCN)c4ccccc4n3)n2)nc2ccccc12` gave a delta Tm of 0 ± 0.2 K (double-stranded DNA; FRET melting; 1 µM, pH 7.4, 60 mM potassium, with: oligonucleotide 200 nM).
`O=C(N/N=C/c1cc[n+](Cc2ccccc2)c2ccccc12)C(=O)N/N=C/c1cc[n+](Cc2ccccc2)c2ccccc12` gave a ΔTm of 4.9 ± 0.1 °C (myc22 MYC G4-DNA parallel; FRET melting; 1 µM, K1 buffer, DNA 0.2 µM, with: ds26 10 µM).
Under “log2 fold change”, `COC1CN([C@H]2CC[C@H]([C@@]3(C)Oc4c(Cl)cc(C(=O)NCc5c(SC)cc(C)[nH]c5=O)c(C)c4O3)CC2)C1` is recorded as 0.541 (RNA-seq, item: CAVIN1 mouse homolog; mouse, HT-1376 xenograft, whole blood; dose not given; relative to: vehicle).
With `COc1cccc(-c2ccc(COCCCCCN3C[C@H](O)[C@@H](O)[C@H](O)[C@H]3CO)cc2)c1` the selectivity ratio was 8 (GBA2; inhibitor, 4MU-β-D-glucopyranoside; HEK293T homogenates overexpressing GBA2; relative to: GCS IC50 over GBA2 IC50).
With `CNS(=O)(=O)Nc1nccc(Cc2c(C)c3ccc(Oc4ncccc4F)cc3oc2=O)c1F` the IC50 was 50.6 nM (NCI-H2122; cell viability; 7 days).
Under “log2 fold change”, `c1ccc(-c2n[nH]cc2-c2ccnc3ccccc23)nc1` is recorded as -0.15 (orf19.4518 Candida albicans; kinase binding, MIB/MS competition; Candida albicans lysate; 10 µM; relative to: DMSO).
`O=C(N/N=C/c1cc[n+](Cc2ccccc2)c2ccccc12)c1cccc(C(=O)N/N=C/c2cc[n+](Cc3ccccc3)c3ccccc23)c1` has a ΔTm of 6.8 ± 0.5 °C (myc22 MYC G4-DNA parallel; FRET melting; 1 µM, K1 buffer, DNA 0.2 µM, with: ds26 10 µM).

A few entries again:
The IC50 of `Cc1nn(-c2cccc(N)c2)c(=O)c2cnc(Nc3ccc(N4CCNCC4)cc3)nc12` is reported as > 10000 nM (Tyrosine-protein kinase JAK2, JH1-JH2 domains (JAK2, Homo sapiens, UniProt O60674); kinase activity, inhibitor, SelectScreen kinase profiling).
For `C[n+]1cc(/C=N/NC(=O)c2cncc(C(=O)N/N=C/c3cc4ccccc4[n+](C)c3)n2)cc2ccccc21`, the ΔTm was 15.4 ± 0.2 °C (myc22 MYC G4-DNA parallel; FRET melting; 1 µM, K1 buffer, DNA 0.2 µM, with: ds26 10 µM).
`C=CC(=O)Nc1cccc(Cn2ncc3cnc(Nc4cnn(CCOC)c4)nc32)c1`: “percent of control” 100% (NEK6 human; binding, KINOMEscan; 100 nM; lower = stronger binding).
Under “LacCer 24:1 amount”, `CCCCCCCCCCCC(=O)N[C@H](CO)C[C@@H](O)c1ccccc1` is recorded as 8740 pmol/sample and 7180 pmol/sample and 7710 pmol/sample (ceramide transfer protein (CERT), human; cellular CERT activity, HPLC-MS/MS lipidomics; HeLa; 1 µM, 24 h, normalised to cell number).
